Assay results from different studies.
± marks the error that the study gave.
Sequence of UniProt P30874 (whole entry, looked up): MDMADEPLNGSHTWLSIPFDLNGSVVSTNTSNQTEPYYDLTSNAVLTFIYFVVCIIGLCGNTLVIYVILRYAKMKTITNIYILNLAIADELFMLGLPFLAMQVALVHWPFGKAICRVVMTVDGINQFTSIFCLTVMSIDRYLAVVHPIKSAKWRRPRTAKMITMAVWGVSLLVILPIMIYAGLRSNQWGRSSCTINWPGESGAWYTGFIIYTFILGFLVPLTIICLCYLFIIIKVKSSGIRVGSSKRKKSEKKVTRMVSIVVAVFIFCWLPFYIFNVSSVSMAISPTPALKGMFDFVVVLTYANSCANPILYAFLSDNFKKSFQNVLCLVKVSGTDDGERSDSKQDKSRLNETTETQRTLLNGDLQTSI
Sequence of UniProt P37023 (whole entry, looked up): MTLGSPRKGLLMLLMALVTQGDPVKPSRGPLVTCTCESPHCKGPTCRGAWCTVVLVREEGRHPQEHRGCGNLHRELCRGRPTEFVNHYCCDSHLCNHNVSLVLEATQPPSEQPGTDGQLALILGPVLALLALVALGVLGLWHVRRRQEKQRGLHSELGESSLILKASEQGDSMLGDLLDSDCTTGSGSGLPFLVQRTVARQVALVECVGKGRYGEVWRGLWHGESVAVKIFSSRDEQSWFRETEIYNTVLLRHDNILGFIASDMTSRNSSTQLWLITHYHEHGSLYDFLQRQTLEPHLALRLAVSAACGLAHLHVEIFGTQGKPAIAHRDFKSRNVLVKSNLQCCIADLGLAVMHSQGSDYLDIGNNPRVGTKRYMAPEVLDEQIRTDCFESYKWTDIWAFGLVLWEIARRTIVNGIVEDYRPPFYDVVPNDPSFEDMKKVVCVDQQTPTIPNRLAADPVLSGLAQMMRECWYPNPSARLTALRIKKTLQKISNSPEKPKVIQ
Sequence of UniProt Q8NCG7 (whole entry, looked up): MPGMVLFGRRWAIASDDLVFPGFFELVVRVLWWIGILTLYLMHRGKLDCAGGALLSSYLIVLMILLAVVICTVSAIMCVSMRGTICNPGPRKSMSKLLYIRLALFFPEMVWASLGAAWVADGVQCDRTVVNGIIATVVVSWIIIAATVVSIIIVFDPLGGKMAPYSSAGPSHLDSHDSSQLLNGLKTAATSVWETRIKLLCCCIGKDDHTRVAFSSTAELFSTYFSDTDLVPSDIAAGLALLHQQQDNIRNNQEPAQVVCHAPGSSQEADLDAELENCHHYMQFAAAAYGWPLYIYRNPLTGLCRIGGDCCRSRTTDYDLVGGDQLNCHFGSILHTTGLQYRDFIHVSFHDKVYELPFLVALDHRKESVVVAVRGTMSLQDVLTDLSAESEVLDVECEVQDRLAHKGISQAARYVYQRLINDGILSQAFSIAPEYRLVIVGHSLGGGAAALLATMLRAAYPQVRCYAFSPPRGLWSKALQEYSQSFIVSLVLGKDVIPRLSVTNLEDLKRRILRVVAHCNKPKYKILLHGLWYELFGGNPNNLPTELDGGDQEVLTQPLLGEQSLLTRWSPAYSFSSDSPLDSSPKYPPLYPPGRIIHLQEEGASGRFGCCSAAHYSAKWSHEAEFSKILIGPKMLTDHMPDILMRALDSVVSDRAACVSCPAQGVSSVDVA
Sequence of UniProt P0AGE0 (whole entry, looked up): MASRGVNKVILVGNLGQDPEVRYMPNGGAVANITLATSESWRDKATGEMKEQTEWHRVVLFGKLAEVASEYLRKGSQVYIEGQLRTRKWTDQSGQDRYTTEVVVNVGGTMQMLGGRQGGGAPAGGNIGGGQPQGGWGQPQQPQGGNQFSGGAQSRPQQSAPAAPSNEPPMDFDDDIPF
Sequence of UniProt Q04760 (whole entry, looked up): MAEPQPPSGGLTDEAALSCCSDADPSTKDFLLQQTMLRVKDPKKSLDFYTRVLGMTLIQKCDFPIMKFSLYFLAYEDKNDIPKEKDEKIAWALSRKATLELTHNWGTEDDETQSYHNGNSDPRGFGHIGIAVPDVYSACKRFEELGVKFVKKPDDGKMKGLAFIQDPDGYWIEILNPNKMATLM
Sequence of UniProt Q14145 (whole entry, looked up): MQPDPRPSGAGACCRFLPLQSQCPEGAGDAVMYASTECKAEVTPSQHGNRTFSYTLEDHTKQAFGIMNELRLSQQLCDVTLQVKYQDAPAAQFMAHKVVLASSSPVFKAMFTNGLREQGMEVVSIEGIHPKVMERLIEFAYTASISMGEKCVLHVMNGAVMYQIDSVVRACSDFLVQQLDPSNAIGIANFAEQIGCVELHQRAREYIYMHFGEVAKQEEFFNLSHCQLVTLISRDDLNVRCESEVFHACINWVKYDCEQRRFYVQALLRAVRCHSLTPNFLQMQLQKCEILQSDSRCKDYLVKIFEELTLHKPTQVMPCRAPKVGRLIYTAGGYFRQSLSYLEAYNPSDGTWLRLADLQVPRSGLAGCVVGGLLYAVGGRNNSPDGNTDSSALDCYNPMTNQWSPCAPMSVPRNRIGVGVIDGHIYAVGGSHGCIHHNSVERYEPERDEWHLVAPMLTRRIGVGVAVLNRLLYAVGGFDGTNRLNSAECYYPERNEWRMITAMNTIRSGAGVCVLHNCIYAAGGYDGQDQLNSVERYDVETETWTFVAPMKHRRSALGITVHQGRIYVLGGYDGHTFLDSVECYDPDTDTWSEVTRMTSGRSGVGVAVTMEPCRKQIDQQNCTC
Sequence of UniProt P14061 (whole entry, looked up): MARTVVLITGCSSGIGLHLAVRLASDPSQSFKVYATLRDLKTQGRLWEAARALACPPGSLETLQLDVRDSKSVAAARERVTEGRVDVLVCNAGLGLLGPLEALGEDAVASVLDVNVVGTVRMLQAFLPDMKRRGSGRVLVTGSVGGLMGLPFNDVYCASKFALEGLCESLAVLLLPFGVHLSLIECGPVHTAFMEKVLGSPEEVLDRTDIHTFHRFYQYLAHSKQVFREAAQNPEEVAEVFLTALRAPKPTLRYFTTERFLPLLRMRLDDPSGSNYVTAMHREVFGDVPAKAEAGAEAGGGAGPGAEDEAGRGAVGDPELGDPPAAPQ
Sequence of UniProt P45984 (whole entry, looked up): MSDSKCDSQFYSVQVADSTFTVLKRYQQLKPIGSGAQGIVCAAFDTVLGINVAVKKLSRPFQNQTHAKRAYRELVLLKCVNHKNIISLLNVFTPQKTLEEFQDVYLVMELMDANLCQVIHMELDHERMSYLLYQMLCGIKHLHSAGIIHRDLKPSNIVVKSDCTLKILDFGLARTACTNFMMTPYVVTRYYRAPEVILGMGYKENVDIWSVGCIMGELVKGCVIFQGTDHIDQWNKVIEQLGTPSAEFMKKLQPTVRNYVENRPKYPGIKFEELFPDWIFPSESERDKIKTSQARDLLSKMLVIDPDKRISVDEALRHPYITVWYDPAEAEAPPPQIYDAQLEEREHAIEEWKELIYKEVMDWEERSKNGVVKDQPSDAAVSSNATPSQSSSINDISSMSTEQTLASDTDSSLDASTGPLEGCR
Sequence of UniProt P28062 (whole entry, looked up): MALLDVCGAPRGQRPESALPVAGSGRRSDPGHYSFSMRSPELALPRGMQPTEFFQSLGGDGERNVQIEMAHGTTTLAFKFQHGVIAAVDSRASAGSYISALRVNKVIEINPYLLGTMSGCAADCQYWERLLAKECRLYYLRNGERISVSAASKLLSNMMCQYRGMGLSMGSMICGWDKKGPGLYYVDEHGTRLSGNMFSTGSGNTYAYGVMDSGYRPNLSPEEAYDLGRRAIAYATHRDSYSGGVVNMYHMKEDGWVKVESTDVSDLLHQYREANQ
Sequence of UniProt P20618 (whole entry, looked up): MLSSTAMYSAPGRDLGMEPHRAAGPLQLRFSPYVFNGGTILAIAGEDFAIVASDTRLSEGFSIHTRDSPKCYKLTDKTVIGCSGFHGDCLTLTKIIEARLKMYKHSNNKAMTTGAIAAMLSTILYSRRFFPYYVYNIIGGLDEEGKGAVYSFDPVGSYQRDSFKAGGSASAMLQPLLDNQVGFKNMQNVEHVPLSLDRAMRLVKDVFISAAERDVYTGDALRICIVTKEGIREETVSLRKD

Structure (SMILES) | target | assay | test system | conditions | IC50 [nM]
N[C@@H](Cc1c[nH]c2ccc(OCc3cccc(-c4ccsc4)c3)cc12)C(=O)O | SLC7A5 (Homo sapiens, UniProt Q01650) | transporter uptake, inhibitor, radiometric | – | – | 19000
COc1ccccc1-c1ccc(-c2cn(C(=O)N3CCCCC3Cc3ccccc3)nn2)cc1 (stereo not drawn) | Diacylglycerol lipase-beta (Homo sapiens, UniProt Q8NCG7) | enzyme activity in cells, inhibitor | – | – | 380
O=C(Nc1cccc(C(=O)Nc2ccc(S(=O)(=O)O)c3cc(S(=O)(=O)O)cc(S(=O)(=O)O)c23)c1)Nc1cccc(C(=O)Nc2ccc(S(=O)(=O)O)c3cc(S(=O)(=O)O)cc(S(=O)(=O)O)c23)c1 | Single-stranded DNA-binding protein (ssb, Escherichia coli, UniProt P0AGE0) | DNA binding, fluorescence polarization | – | together with: Cy5-dT15 DNA 5 nM | 1700 ± 200
NS(=O)(=O)c1ccc(/N=N/c2cc3ccc(=O)oc3cc2O)cc1 | GLO1 (Homo sapiens, UniProt Q04760) | enzyme activity, inhibitor | – | – | 33100
Cc1[nH]nc2c1N=C(c1ccccc1Cl)c1cnc(N3CCOCC3)cc1N2 | FLT4 (Homo sapiens, UniProt P35916) | enzyme activity, inhibitor | – | – | 0.93
CC(=O)N[C@@H](Cc1c[nH]c2ccccc12)C(=O)N[C@H]1CSSC[C@@H](C(=O)N[C@@H](Cc2c[nH]c3ccccc23)C(N)=O)NC(=O)[C@H](CCCNC(=N)N)NC(=O)[C@H](Cc2c[nH]cn2)NC(=O)[C@H](C)NC(=O)CNC(=O)[C@H](Cc2c[nH]c3ccccc23)NC(=O)[C@H](CC(=O)O)NC(=O)[C@H](CCC(N)=O)NC(=O)[C@H](Cc2c[nH]c3ccccc23)NC(=O)[C@H](C(C)C)NC1=O | Complement C3 (Homo sapiens, UniProt P01024) | C3b formation, ELISA | normal human serum | together with: LPS-coated plate | 1090
CS(=O)(=O)CCNCc1ccc(-c2ccc3ncnc(Nc4ccc(OCc5cccc(F)c5)c(Cl)c4)c3c2)o1 | Kinase suppressor of Ras 2, with MEK1 (KSR2, Homo sapiens, UniProt Q6VAB6) | ATP probe binding, inhibitor, ATP-biotin probe competition | – | – | > 10000
CC(C)NCc1ccc(C[C@@H]2NC(=O)[C@@H](Cc3c[nH]c4ccccc34)NC(=O)[C@H](Cc3ccccc3)NC(=O)[C@H](NC(=O)[C@@H](N)Cc3ccc(Cl)cc3)CSSC[C@@H](C(=O)N[C@@H](Cc3ccc4ccccc4c3)C(N)=O)NC(=O)[C@H](Cc3ccc(O)c(I)c3)NC2=O)cc1 | SSTR2 (Homo sapiens, UniProt P30874) | ligand displacement, radioligand | – | cell membranes | > 1000
CCCCNC(=O)OCCCO[C@@H]1CC(=O)[C@@]2(C)CC[C@@H]3c4ccc(O)cc4CC[C@H]3[C@H]12 | HSD17B1 (Homo sapiens, UniProt P14061) | enzyme activity, inhibitor, radiometric | – | – | 1400
O=c1[nH]c2ccccc2nc1/C=C/c1ccccc1Br | FLT3 (Homo sapiens, UniProt P36888) | enzyme activity, inhibitor, TR-FRET | – | – | > 100000
Cc1ccc(CNC(=O)C(CCc2ccccc2)NC(=O)C(NC(=O)Cc2cccc(Oc3ccccc3)c2)C(C)O)cc1 (stereo not drawn) | Proteasome component C5/PSMB8 (Homo sapiens, UniProt P20618+P28062) | inhibitor | – | – | 41
C[C@H](CCC(=O)NCCS(=O)(=O)O)[C@H]1CC[C@H]2[C@@H]3CC[C@@H]4C[C@H](O)CC[C@]4(C)[C@H]3C[C@H](O)[C@]12C | SHMT2 (Homo sapiens, UniProt P34897) | serine to glycine conversion, inhibitor | – | pH 7.5, 1% DMSO, together with: L-serine 1 mM, THF 0.2 mM | 15000
CCOc1ccc(S(=O)(=O)Nc2ccc(NS(=O)(=O)c3ccc(OCC)cc3)c3ccccc23)cc1 | Kelch-like ECH-associated protein 1, Kelch domain (KEAP1, Homo sapiens, UniProt Q14145) | Keap1-Nrf2 interaction, inhibitor, fluorescence polarization | – | – | 3570 ± 340
COc1cc(F)cc(-c2nc3ccc(C(=O)NCCCN(C)C)cc3n2C2CCC2)c1 | ACVRL1 (Homo sapiens, UniProt P37023) | target engagement in cells, BRET | – | – | > 30000
Cc1cc(NC(=O)c2cccc(-n3cc(NC(=O)Nc4ccccc4)cn3)c2)ccn1 | MAPK9 (Homo sapiens, UniProt P45984) | enzyme activity, inhibitor | – | – | 132

For quick reference, copied from above:
Structure (SMILES) | target | assay | test system | conditions | IC50 [nM]
N[C@@H](Cc1c[nH]c2ccc(OCc3cccc(-c4ccsc4)c3)cc12)C(=O)O | SLC7A5 (Homo sapiens, UniProt Q01650) | transporter uptake, inhibitor, radiometric | – | – | 19000
C[C@H](CCC(=O)NCCS(=O)(=O)O)[C@H]1CC[C@H]2[C@@H]3CC[C@@H]4C[C@H](O)CC[C@]4(C)[C@H]3C[C@H](O)[C@]12C | SHMT2 (Homo sapiens, UniProt P34897) | serine to glycine conversion, inhibitor | – | pH 7.5, 1% DMSO, together with: L-serine 1 mM, THF 0.2 mM | 15000
